Results from different studies.
Compare with care: the assays were run in different laboratories.

Compound	assay	test system	conditions	endpoint	result
O=C1Nc2cc3[nH]nc(-c4ccncc4)c3cc2CN1Cc1ccccc1	CTCAE v4.03	advanced solid tumour patients	intravenous, 11.3 mg/kg	patients with infusion reaction	33%
CC(=O)c1c(C)c2cnc(Nc3ccc(C4CCN(CCS(C)(=O)=O)CC4)cn3)nc2n(C2CCCC2)c1=O		HR+/HER2- advanced breast cancer patients	oral, 100 mg bid, grade 3/4, monotherapy arm	patients with any TEAE	80%
COc1c(C)cnc(Cn2cc(C#CCCOP(=O)(O)O)c3c(Cl)nc(N)nc32)c1C		patients, advanced solid tumours	dose not given, at least one AE	patients with adverse event	100%
COc1ccc(-c2c(-c3ccc(C#N)c(F)c3)nc(N3CCC(N)CC3)n(C)c2=O)cc1F	measured: decreased appetite	relapsed/refractory MZL patients	oral, 60 mg, dose expansion	patients with TRAE any grade	0%
CN1CC[C@@H](c2c(O)cc(O)c3c(=O)cc(-c4ccc(C(F)(F)F)cc4Cl)oc23)[C@@H]1CO	measured: respiratory failure	AML	oral, 200 mg, grade 3 to 4, intermittent dosing	patients with adverse event	0%
N[C@@H]1c2ccccc2OC12CCN(c1cnc3c(N4CCCc5ncccc54)n[nH]c3n1)CC2		advanced solid tumour patients	oral, 75 mg once daily	patients with grade ≥3 TEAE	71.4%
CCNCCCNC/C=C\CNCCCNCC		advanced refractory solid tumour patients	intravenous, dose not given, cycle 1	patients with TEAEs	100%
COc1cc2c(Oc3ccc4[nH]c(C)cc4c3F)ccnc2cc1OCC1(N)CC1		paediatric refractory sarcoma patients	dose not given	patients with grade 3 ALT elevation	0%
C=CCNc1c(O)cc2c(O)c1C[C@@H](C)C[C@H](OC)[C@H](O)[C@@H](C)/C=C(\C)[C@H](OC(N)=O)[C@@H](OC)/C=C\C=C(/C)C(=O)N2		unresectable or metastatic STS, GIST, other	intravenous, 150 mg/m^2	patients with sinus bradycardia	0%
Nc1nc2cc(-c3ccc4ncc(C(=O)N5CCOCC5)n4c3)ccc2o1	measured: Constipation	advanced solid tumour patients	dose not given	patients with adverse event	0%
COc1nnc2ccc(N3CCC(c4ccc(OCCN5CCN(C)C(=O)[C@H]5C)cc4)CC3)nn12	measured: fatigue	patients with solid tumours or lymphoma	oral, dose not given, grade at least 3, treatment-emergent	patients with adverse event	5.9%
CCN(CCO)CCCC(C)Nc1ccnc2cc(Cl)ccc12 (stereo not shown)	measured: Photosensitivity grade 2	newly diagnosed glioblastoma patients	oral, 400 mg/dose, with radiotherapy and temozolomide	patients with adverse event	14%
C=CC(=O)N1CC[C@H](n2nc(C#Cc3cc(OC)cc(OC)c3)c3c(N)ncnc32)C1		hyperphosphataemia patients	oral, once daily, grade ≥3, phosphate binder users	patients with ADR	15%

A few entries again:
Compound	assay	test system	conditions	endpoint	result
CCN(CCO)CCCC(C)Nc1ccnc2cc(Cl)ccc12 (stereo not shown)	measured: Photosensitivity grade 2	newly diagnosed glioblastoma patients	oral, 400 mg/dose, with radiotherapy and temozolomide	patients with adverse event	14%
C=CC(=O)N1CC[C@H](n2nc(C#Cc3cc(OC)cc(OC)c3)c3c(N)ncnc32)C1		hyperphosphataemia patients	oral, once daily, grade ≥3, phosphate binder users	patients with ADR	15%
